Values quoted from earlier work, collected from citations in different studies.
Protocols differ between the studies behind these lines. ± marks the error that the study gave.
ACHE: Acetylcholinesterase (ACHE, Homo sapiens, UniProt P22303)
Sequence of UniProt P22303 (whole entry, looked up): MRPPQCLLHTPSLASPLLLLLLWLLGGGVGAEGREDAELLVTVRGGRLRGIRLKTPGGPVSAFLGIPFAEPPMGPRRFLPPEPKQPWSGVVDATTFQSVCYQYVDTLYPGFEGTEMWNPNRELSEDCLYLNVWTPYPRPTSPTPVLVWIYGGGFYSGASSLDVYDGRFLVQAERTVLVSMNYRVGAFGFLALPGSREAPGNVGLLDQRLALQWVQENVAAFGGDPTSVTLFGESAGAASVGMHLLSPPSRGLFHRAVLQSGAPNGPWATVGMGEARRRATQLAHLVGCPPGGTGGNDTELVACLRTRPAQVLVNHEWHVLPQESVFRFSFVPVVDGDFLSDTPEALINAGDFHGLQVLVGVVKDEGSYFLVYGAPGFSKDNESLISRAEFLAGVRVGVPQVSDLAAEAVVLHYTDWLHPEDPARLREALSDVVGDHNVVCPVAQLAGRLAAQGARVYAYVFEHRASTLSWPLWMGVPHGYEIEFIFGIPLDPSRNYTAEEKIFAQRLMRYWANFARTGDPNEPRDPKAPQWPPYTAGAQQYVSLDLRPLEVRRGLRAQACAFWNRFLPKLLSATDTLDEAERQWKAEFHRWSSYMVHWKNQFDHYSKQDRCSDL
TACR1: Substance-P receptor (TACR1, Homo sapiens, UniProt P25103)
Sequence of UniProt P25103 (whole entry, looked up): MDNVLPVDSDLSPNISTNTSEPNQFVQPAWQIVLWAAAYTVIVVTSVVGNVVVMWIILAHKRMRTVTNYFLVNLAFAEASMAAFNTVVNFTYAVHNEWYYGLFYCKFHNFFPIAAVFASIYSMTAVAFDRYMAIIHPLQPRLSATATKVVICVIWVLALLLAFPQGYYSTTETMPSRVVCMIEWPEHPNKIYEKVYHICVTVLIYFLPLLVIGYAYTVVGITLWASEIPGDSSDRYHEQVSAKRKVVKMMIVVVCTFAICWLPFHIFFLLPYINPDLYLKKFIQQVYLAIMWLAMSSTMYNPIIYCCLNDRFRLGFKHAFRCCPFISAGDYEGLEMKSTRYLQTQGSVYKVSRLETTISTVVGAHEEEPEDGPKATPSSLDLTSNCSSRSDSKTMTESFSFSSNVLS
Sequence of UniProt P81908 (whole entry, looked up): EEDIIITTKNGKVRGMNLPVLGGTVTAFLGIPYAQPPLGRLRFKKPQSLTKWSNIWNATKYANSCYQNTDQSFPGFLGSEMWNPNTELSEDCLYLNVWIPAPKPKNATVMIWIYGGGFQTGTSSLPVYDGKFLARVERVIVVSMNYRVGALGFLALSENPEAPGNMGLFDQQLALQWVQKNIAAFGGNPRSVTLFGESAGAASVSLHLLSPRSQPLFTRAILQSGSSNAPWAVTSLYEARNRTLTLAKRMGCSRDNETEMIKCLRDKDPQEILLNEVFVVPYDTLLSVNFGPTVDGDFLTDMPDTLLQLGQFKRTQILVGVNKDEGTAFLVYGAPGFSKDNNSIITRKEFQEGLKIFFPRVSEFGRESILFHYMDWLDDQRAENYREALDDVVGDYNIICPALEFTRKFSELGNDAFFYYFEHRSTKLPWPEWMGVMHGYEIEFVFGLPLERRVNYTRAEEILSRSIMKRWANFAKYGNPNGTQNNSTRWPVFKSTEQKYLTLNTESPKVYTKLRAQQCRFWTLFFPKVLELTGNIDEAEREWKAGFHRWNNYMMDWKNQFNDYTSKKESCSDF
Sequence of UniProt P06276 (whole entry, looked up): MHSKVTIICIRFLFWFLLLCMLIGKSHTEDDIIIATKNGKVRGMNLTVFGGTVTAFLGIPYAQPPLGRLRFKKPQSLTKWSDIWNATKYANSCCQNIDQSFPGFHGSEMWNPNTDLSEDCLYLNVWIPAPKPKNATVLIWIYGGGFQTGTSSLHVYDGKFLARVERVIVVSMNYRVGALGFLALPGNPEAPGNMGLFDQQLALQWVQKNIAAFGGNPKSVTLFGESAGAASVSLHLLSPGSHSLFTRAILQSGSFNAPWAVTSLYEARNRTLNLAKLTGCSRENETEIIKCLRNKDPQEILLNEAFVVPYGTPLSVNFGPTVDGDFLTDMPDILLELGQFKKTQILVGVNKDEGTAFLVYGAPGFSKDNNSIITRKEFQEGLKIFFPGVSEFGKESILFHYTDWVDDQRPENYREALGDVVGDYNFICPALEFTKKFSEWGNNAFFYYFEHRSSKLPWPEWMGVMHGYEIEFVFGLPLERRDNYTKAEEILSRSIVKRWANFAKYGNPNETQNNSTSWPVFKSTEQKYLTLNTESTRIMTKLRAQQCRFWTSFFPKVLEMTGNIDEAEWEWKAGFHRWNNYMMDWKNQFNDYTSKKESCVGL
Sequence of UniProt P32322 (whole entry, looked up): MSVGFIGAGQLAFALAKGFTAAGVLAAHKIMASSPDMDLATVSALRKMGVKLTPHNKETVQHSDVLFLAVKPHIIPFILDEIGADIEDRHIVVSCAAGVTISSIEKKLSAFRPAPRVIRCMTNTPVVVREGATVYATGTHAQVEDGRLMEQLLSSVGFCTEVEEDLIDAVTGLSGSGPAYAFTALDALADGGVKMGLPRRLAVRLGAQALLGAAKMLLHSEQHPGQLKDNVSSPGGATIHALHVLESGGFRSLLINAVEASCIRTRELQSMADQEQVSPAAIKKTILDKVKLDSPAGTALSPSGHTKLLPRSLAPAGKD
Sequence of UniProt P28335 (whole entry, looked up): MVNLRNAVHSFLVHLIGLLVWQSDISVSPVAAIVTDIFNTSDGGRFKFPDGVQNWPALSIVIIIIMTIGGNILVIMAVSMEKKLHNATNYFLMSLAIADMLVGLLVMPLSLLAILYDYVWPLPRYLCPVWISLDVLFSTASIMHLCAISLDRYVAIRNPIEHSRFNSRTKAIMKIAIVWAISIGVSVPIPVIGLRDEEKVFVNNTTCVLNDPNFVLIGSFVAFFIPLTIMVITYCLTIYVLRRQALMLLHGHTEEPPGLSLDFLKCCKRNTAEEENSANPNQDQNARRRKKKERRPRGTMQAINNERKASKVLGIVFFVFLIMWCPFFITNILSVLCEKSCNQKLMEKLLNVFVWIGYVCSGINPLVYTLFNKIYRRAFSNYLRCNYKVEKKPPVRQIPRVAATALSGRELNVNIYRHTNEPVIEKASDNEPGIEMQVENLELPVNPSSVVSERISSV

| Structure (SMILES) | target | assay | setting | Ki [nM] |
| --- | --- | --- | --- | --- |
| CC(C)(C)c1cccc(C(=O)C(F)(F)F)c1 | ACHE |  |  | 0.0037 |
| CN(C)CCc1c[nH]cn1 | histamine H4 receptor |  |  | ~1200 |
| CN(C)S(=O)(=O)NC1CCc2ccc(O)cc2C1 (centres unmarked) | ACHE |  |  | 0.72 |
| CCCNC(=O)c1nn(-c2ccc(Cl)cc2Cl)c(-c2ccc(Cl)cc2)c1C | CB2 receptor | binding |  | 2960 |
| CC(=O)c1c(O)c(C)c(O)c2c1OC1=CC(=O)C(C(C)=O)C(=O)C12C (centres unmarked) | Cholinesterase (BCHE, Equus caballus, UniProt P81908) |  |  | 1.98 |
| Cc1c(C(=O)N2CCCCC2)nn(-c2ccc(Cl)cc2Cl)c1-c1ccc(Br)cc1 | CB1 receptor | binding |  | 125 |
| Cc1ccc(C(C)C)cc1O | Cholinesterase (BCHE, Homo sapiens, UniProt P06276) | inhibitor |  | 23.9 |
| COc1ccc2c(c1)c(CCN1CCOCC1)c(C)n2C(=O)c1cccc(Cl)c1Cl | cannabinoid receptor 1, human | binding |  | 4770 |
| Ic1ccccc1CN[C@@H]1C2CCN(CC2)[C@@H]1C(c1ccccc1)c1ccccc1 (racemic) | TACR1 | binding | historical reference data | 2.6 |
| CC(C)c1cc2c(c(O)c1O)[C@@]1(C(=O)O)CCCC(C)(C)[C@@H]1CC2 | glutathione reductase | inhibitor |  | 790000 ± 330000 |
| CCN(CC)S(=O)(=O)N/C(=N/C)N1CC(c2cccnc2)C(c2ccc(Cl)cc2)=N1 (centres unmarked) | CB1 receptor | binding |  | 141 |
| COc1ccc2c(c1O)-c1c(O)c(OC)cc3c1[C@H](C2)[N+](C)(C)CC3 | CA2 (Homo sapiens, UniProt P00918) |  |  | 25.4 |
| Cc1c(C(=O)NC2CCCCC2)nn(-c2ccc(Cl)cc2Cl)c1-c1ccc(Cl)cc1 | CB1 receptor | binding |  | 2.46 |
| CN(C)c1nc2c(Br)c(Br)c(Br)c(Br)c2n1CC(=O)O | CSNK2A2 | inhibitor |  | 21 |
| COc1ccc2c(c1)CC(NS(=O)(=O)N(C)C)CC2 (centres unmarked) | ACHE |  |  | 0.83 |
| Ic1ccccc1CN[C@@H]1C2CCN(CC2)[C@@H]1C(c1ccccc1)c1ccccc1 (racemic) | TACR1 |  |  | 2.6 |
| O=C(O)[C@@]12C[C@@H]1[C@@H](n1cnc3c(NC(C4CC4)C4CC4)nc(Cl)nc31)[C@H](O)[C@@H]2O | HTR2C (Homo sapiens, UniProt P28335) | binding |  | 2480 |
| CC(C)CN(C[C@@H](O)[C@H](Cc1ccccc1)NC(=O)O[C@H]1CO[C@H]2OCC[C@H]21)S(=O)(=O)c1ccc(C(=O)O)cc1 | Gag-Pol polyprotein, protease (gag-pol, Human immunodeficiency virus type 1 group M subtype B, UniProt P04585) | inhibitor |  | 0.0129 |
| C=CCn1c2c(c3cc(C(=O)N4CCC(C)CC4)ccc31)CN(C1CCCC1)C2 | CB2 receptor | binding |  | 23.3 |
| O=CN1CCC[C@H]1C(=O)O | Pyrroline-5-carboxylate reductase 1, mitochondrial (Homo sapiens, UniProt P32322) | enzyme activity, competitive inhibitor | together with: L-P5C variable, NADH 175 µM fixed | 100000 |
| Cc1c(C(=O)NN2CCCCC2)nc(-c2ccc(Cl)cc2Cl)n1-c1ccc(C(F)(F)F)cc1 | CB1 receptor | binding |  | 29 |
| CC(C)c1cccc(C(=O)C(F)(F)F)c1 | ACHE |  |  | 0.0085 |
| Cc1c(C(=O)NN2CCCCCC2)nn(-c2ccc(Cl)cc2Cl)c1-c1ccc(Br)cc1 | CB1 receptor | binding |  | 7.85 |
| O=C(/C=C/c1ccc(O)c(O)c1)O[C@H](Cc1ccc(O)c(O)c1)C(=O)O | Cholinesterase (BCHE, Equus caballus, UniProt P81908) |  |  | 0.121 |
| Cc1ccc2c(c1)CCCc1c(C(=O)NN3CCCCC3)nn(-c3ccc(Cl)cc3Cl)c1-2 | CB1 receptor | binding |  | 0.0052 |
| Nc1ccccc1[C@H](O)C[C@H](N)C(=O)O | kynureninase (Pseudomonas fluorescens) | inhibitor |  | 1500 |

A few entries again:
| Structure (SMILES) | target | assay | setting | Ki [nM] |
| --- | --- | --- | --- | --- |
| O=C(O)[C@@]12C[C@@H]1[C@@H](n1cnc3c(NC(C4CC4)C4CC4)nc(Cl)nc31)[C@H](O)[C@@H]2O | HTR2C (Homo sapiens, UniProt P28335) | binding |  | 2480 |
| Cc1c(C(=O)NN2CCCCCC2)nn(-c2ccc(Cl)cc2Cl)c1-c1ccc(Br)cc1 | CB1 receptor | binding |  | 7.85 |
| CC(=O)c1c(O)c(C)c(O)c2c1OC1=CC(=O)C(C(C)=O)C(=O)C12C (centres unmarked) | Cholinesterase (BCHE, Equus caballus, UniProt P81908) |  |  | 1.98 |
